Measured values from different studies.
rep main protease: Replicase polyprotein 1ab, main protease (rep, Severe acute respiratory syndrome coronavirus 2, UniProt P0DTD1)

SMILES	target or system	test	test system	setting	how to read	endpoint	result
COc1ccccc1/C=C1\C(=O)Nc2ccccc21	rep main protease	viral replication, mKate2 reporter	SARS-CoV-2	20 µM		inhibition	-0.268%
Cc1nc[nH]c1CN1CCc2cc3ccc2C1c1cccc(c1)OCCCNC(=O)c1cc(ccc1O)O3 (stereo not shown)	Lassa mammarenavirus	viral replication	Huh-7	concentration not given		Emax	98.4%
Cn1cncc1[C@@](N)(c1ccc(Cl)cc1)c1ccc2c(c1)c(-c1cccc(Cl)c1)cc(=O)n2C	SARS-CoV-2	viral replication, high-content imaging screen		cell-based		EC50	> 100 µM
CC(=O)N1CC(=O)N[C@@H](CC(C)C)c2nc(cs2)C(=O)N[C@@H](Cc2ccccc2)c2nc(C)nn2CC(=O)N[C@@H](C(C)C)C1	Lassa mammarenavirus	viral replication	Huh-7	10 µM, 72 h		remaining activity	119%
CNC(=O)[C@@H](NC(=O)[C@H](CC(C)C)[C@H](O)C(=O)NO)C(C)(C)C	Daboia russelii		mouse	120 µg, up to 24 h, with: southern venom preincubated		time of death	> 24 h
Cn1cnc(Cn2c(=O)[nH]/c(=N\c3cc4cn(C)nc4cc3Cl)n(Cc3cc(F)c(F)cc3F)c2=O)n1			human, moderate renal impairment	oral, 375 mg, vessel puncture site haemorrhage TEAE, Moderate severity		patients with adverse event	0%
Cc1ccc2c(NC(C)c3ccccc3)nc(N3CCNCC3)nc2c1 (stereo not shown)	SARS-CoV-2	cytopathic effect	USA_WA1/2020			AC50	10 µM
Cc1cccc(-c2ncc(CN3CCN(CC(=O)N4CCCC4)CC3)cn2)c1	Lassa mammarenavirus	viral replication	Huh-7	10 µM, 72 h		remaining activity	37%
CCc1c(C(=O)C(N)=O)c2c(OCC(=O)O)cccc2n1Cc1ccccc1	Daboia russelii		C2C12	100 µM, with: Daboia russelii venom AP	relative to: venom alone	viability difference	-30%
Nc1ncnc2c([C@@H]3N[C@H](CO)[C@@H](O)[C@H]3O)c[nH]c12	Middle East respiratory syndrome-related coronavirus	viral replication	Vero C1008, Jordan N3	100 µM		inhibition	64.6%
COc1cccc(-c2ccccc2NC(=O)C2CCN(Cc3ccccc3F)CC2)c1	SARS-CoV-2	cytopathic effect, cell-based CPE	USA_WA1/2020			AC50	14.1 µM
CCN1CC(=O)N[C@@H](CC(C)C)c2nc(cs2)C(=O)N[C@@H](Cc2ccccc2)c2nc(C)nn2CC(=O)N[C@@H](C(C)C)C1	Lassa mammarenavirus	viral replication	Huh-7	10 µM, 72 h		remaining activity	92%
CCC1CCCCN1CCCNC(=O)c1sc2nc(C)cc(C)c2c1-n1cccc1 (stereo not shown)	SARS-CoV-2	cytopathic effect, cell-based CPE	USA_WA1/2020			AC50	14.1 µM
CC[C@H](C)[C@H](NC(=O)[C@H](CC(C)C)NC(=O)[C@H](Cc1c[nH]c2ccccc12)NC(=O)[C@H](CCC(N)=O)NC(=O)[C@@H](NC(=O)[C@H](Cc1ccccc1)NC(=O)[C@H](C)NC(=O)[C@H](CCCCNC(=O)COCCOCCNC(=O)COCCOCCNC(=O)CC[C@H](NC(=O)CCCCCCCCCCCCCCCCCCC(=O)O)C(=O)O)NC(=O)[C@H](CCC(N)=O)NC(=O)[C@H](C)NC(=O)[C@@H](NC(=O)[C@H](CCCCN)NC(=O)[C@H](CC(=O)O)NC(=O)[C@H](CC(C)C)NC(=O)C(C)(C)NC(=O)[C@@H](NC(=O)[C@H](CO)NC(=O)[C@H](Cc1ccc(O)cc1)NC(=O)[C@H](CC(=O)O)NC(=O)[C@H](CO)NC(=O)[C@@H](NC(=O)[C@H](Cc1ccccc1)NC(=O)[C@@H](NC(=O)CNC(=O)[C@H](CCC(=O)O)NC(=O)C(C)(C)NC(=O)[C@@H](N)Cc1ccc(O)cc1)[C@@H](C)O)[C@@H](C)O)[C@@H](C)CC)[C@@H](C)CC)C(C)C)C(=O)N[C@@H](C)C(=O)NCC(=O)NCC(=O)N1CCC[C@H]1C(=O)N[C@@H](CO)C(=O)N[C@@H](CO)C(=O)NCC(=O)N[C@@H](C)C(=O)N1CCC[C@H]1C(=O)N1CCC[C@H]1C(=O)N1CCC[C@H]1C(=O)N[C@@H](CO)C(N)=O		measured: treatment-emergent decreased appetite	healthy subjects	0.5 mg, multiple ascending dose		subjects with adverse event	0%
CCN(CC)Cc1cc(Nc2ccnc3cc(Cl)ccc23)ccc1O	SARS-CoV-2	cytopathic effect, cell-based CPE	USA_WA1/2020	round 2, 5-point dilution		maximal response	89%
CC(C)CN(C[C@@H](O)[C@H](Cc1ccccc1)NC(=O)O[C@H]1CCOC1)S(=O)(=O)c1ccc(N)cc1	rep main protease	reporter gene (Gaussia luciferase), inhibitor		20 µM		inhibition	-1.39%

A few entries again:
SMILES	target or system	test	test system	setting	how to read	endpoint	result
Cn1cncc1[C@@](N)(c1ccc(Cl)cc1)c1ccc2c(c1)c(-c1cccc(Cl)c1)cc(=O)n2C	SARS-CoV-2	viral replication, high-content imaging screen		cell-based		EC50	> 100 µM
COc1cccc(-c2ccccc2NC(=O)C2CCN(Cc3ccccc3F)CC2)c1	SARS-CoV-2	cytopathic effect, cell-based CPE	USA_WA1/2020			AC50	14.1 µM
